Assay results of several laboratories.
Numbered parts are unrelated; each lists some results of a single study. Substitutions count along the parent as printed.
Chain of UniProt P41143 (whole entry, looked up): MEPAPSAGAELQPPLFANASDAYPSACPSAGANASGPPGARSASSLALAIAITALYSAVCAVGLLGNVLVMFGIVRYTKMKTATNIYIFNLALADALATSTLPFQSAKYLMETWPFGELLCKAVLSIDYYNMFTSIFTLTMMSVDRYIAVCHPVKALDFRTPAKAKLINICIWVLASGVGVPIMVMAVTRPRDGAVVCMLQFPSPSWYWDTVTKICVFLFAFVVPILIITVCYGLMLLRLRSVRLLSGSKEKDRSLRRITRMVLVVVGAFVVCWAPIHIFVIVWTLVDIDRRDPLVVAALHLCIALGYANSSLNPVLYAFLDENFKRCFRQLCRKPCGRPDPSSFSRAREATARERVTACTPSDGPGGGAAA

Sample 1 — method: aptamer microarray, sandwich; molecule type: DNA with 2'F-ANA; medium: in vitro; tested at: 200 nM; with: Cy3 exosite-II aptamer, 400 nM; direction: higher = stronger binding; strand: GGTTGGTGTGGTTGG
Target: Prothrombin, mature alpha-thrombin (F2, Homo sapiens, UniProt P00734)
Notes: whole 15-mer aptamer, many near background
Modification	mean fluorescence intensity [a.u.]
2'F-ANA at 2 4 10 12 13 14 15	65.6
2'F-ANA at 3 5 9 14	55.5
2'F-ANA at 1 2 3 5 6 8 10 11 12 13 15	82.8
2'F-ANA at 2 4 5 7 8 10 11 12 13	49.7
2'F-ANA at 4 5 7 8 10 12 15	47.9
2'F-ANA at 3 5 7 12 14 15	72.9
2'F-ANA at 1 3 4 8 9 12 13 15	295
2'F-ANA at 1 3 4 5 8 9 10 11 12 14	47.9

Sample 2 — method: protein-binding microarray; molecule type: double-stranded DNA, one strand shown; medium: in vitro; tested at: not given; direction: higher = stronger binding
Target: Hepatocyte nuclear factor 3-beta, forkhead domain (FOXA2, Homo sapiens, UniProt Q9Y261, residues 142-269)
Notes: k-mer, scored over probes, only values ≥0.25
Construct (chain): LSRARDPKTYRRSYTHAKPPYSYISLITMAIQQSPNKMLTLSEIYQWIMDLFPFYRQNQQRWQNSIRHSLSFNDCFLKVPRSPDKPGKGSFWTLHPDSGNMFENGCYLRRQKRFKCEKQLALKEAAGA
Strand	E-score
GTGTGTGA	0.259
GTGTACAC	0.396
ACAAGCAA	0.264
CTTACTAC	0.269
ATAGAATA	0.334
TACAATAA	0.288
TAACCATA	0.259
ATAGATAC	0.333

Sample 3 — method: RNAcompete; molecule type: RNA; medium: in vitro; tested at: 20 nM; notes: 7-mer, probes averaged, single round; baseline: mean of 7-mers; direction: higher = stronger binding
Target: PABPC1L2, full length, GST fusion (mouse, UniProt A0ABA7IW68)
Target sequence (chain): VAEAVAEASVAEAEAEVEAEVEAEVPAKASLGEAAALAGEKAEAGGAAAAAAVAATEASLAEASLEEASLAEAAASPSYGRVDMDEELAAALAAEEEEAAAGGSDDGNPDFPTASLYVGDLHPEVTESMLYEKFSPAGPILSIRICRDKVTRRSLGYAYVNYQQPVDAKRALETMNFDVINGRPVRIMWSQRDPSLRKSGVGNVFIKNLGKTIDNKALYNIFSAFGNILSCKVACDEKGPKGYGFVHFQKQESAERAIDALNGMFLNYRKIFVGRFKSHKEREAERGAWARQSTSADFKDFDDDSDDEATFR
Strand	7-mer Z-score
AGAGUUA	-0.173
AAUUCAU	-0.0627
UCUUUGU	-0.447
AGAGGGG	0.247
GGAGUGA	0.0297
UACUUCU	-0.347
CAGUGAG	-0.101
UUUCGUG	-0.431

Sample 4 — target: CCND2, cyclin fold, Cln2 fusion (human); method: yeast growth competition, sequencing; medium: yeast; notes: weak parent motif; baseline: not given; direction: higher = stronger binding
Parent: viral docking peptide; TSVRRALFTGGSD; partner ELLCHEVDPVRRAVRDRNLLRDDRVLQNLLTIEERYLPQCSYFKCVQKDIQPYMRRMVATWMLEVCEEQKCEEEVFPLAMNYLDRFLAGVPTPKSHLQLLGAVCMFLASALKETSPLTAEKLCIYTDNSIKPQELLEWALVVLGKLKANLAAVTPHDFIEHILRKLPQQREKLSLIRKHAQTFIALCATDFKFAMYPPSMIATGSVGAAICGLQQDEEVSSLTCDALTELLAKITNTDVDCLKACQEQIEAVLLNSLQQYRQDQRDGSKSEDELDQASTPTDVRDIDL
Substitution	normalised enrichment score
R5K	-0.159
V3P	0.386
V3E	0.0886
G10M	-0.0409
A6Y	-0.617
S12T	-0.0256
R5N	0.0806
S2A	0.224
G10E	0.437
S2N	0.0802
G11S	0.073
G11K	-0.117
S2F	0.292
V3H	-0.0943
T9G	-0.0142
L7G	0.283
T9I	-0.26
T9R	0.00582
G11D	-0.0303
V3D	0.107
S2Q	0.124
R5V	-0.287
L7W	0.142
R4V	-0.0783
S12H	-0.182

Other studies, line by line
SMILES	target	read-out	tested at	measurement	result
O=C(NNS(=O)(=O)c1ccccc1F)c1cc(F)cc(-c2ccccn2)c1	Delta-type opioid receptor (OPRD1, Homo sapiens, UniProt P41143)	cell-free assay	10 µM	inhibition	20.6%

Repeated from above (sample 1):
Modification	mean fluorescence intensity [a.u.]
2'F-ANA at 1 2 3 5 6 8 10 11 12 13 15	82.8
2'F-ANA at 2 4 5 7 8 10 11 12 13	49.7
2'F-ANA at 4 5 7 8 10 12 15	47.9
2'F-ANA at 3 5 7 12 14 15	72.9
